Published values gathered from unrelated publications.
Protocols differ between the studies behind these lines. ± marks the error that the study gave.
Cell line: MDA-MB-231

Structure (SMILES)	effect on	technique	time	notes	IC50
O=c1c(O)c(-c2ccc(O)c(O)c2)oc2cc(O)cc(O)c12	cell growth or viability	trypan blue	72 h	–	101 µM
O=c1[nH]nc(O)c2c(-c3ccc([N+](=O)[O-])cc3)c3n(c12)CCn1cccc1-3	cell growth or viability	MTT	48 h	–	61.7 µM
COc1ccc(/C=C/C(=O)O[C@@H]2[C@@H](O)[C@@H](O)[C@H](O[C@H]3[C@@H]4C=CO[C@@H](O[C@@H]5O[C@H](CO)[C@@H](O)[C@H](O)[C@H]5O)[C@@H]4[C@@]4(CO)O[C@@H]34)O[C@H]2C)cc1	cell growth or viability	MTT	–	–	29.2 µM
O=C(/C=C/c1ccc(Cn2cc(Cn3cnc4ccccc4c3=O)nn2)cc1)NO	cell growth or viability	MTT	48 h	–	7.19 µM
COC(=O)c1c(-c2ccc(O)c(OC)c2)c2n(c1C(=O)OC)CCn1cccc1-2	cell growth or viability	MTT	48 h	–	42 µM
O=C(NO)c1ccc(NC(=O)[C@@H](NC(=O)c2ccccc2)c2ccccc2)cc1	cell growth or viability	MTT	48 h	–	6.22 µM
COCCOc1cc2ncnc(Nc3cccc(-c4cn(CCOCCOCCOCCNC(=S)Nc5ccc(S(N)(=O)=O)cc5)nn4)c3)c2cc1OCCOC	cell proliferation	flow cytometry cell count	72 h	hypoxia 1% O2	30 µM
CC1CC(C)CN(c2cc(Nc3ccccc3C(=O)O)c3c4c(onc24)-c2ccccc2C3=O)C1 (stereo not drawn)	cell migration	–	8 h	–	> 100 µM
O=C(COc1ccc(-c2cnc3ccccc3n2)cc1)NCCCNC(=O)COc1ccc(-c2cnc3ccccc3n2)cc1	cell viability	MTT	–	–	> 50 µM
O=c1[nH]nc(O)c2c(-c3cccc(Cl)c3)c3n(c12)CCn1cccc1-3	cell growth or viability	MTT	48 h	–	17.9 µM
COc1ccc(N2CCN(CC(=O)Nc3ccc(C4=NN(C(C)=O)C(c5cc(OC)c(OC)c(OC)c5)C4)cc3)CC2)cc1 (stereo not drawn)	cell growth or viability	MTT	–	–	2.89 µM
COc1cc2c(cc1O)CC[C@@H]1[C@@H]2CC[C@]2(C)[C@@H](O)CC[C@@H]12	cell growth or viability	MTT	48 h	–	1.27 µM
O=c1[nH]nc(O)c2c(-c3ccc(Cl)cc3Cl)c3n(c12)CCn1cccc1-3	cell growth or viability	MTT	48 h	–	81.8 µM
CC(=O)OC[C@@H]1O[C@H](n2cc(Cn3ccc4nc(-c5ccc(C(F)(F)F)cc5)cc(=O)n43)nn2)[C@@H](OC(C)=O)[C@H](OC(C)=O)[C@@H]1OC(C)=O (stereo in doubt)	cell growth or viability	MTT	72 h	–	32.1 µM
O=C(NO)c1ccc(NC(=O)[C@@H](NC(=O)c2ccc3ccccc3c2)c2ccccc2)cc1	cell growth or viability	MTT	48 h	–	4.23 µM
O=c1[nH]nc(O)c2c(-c3cccc(Br)c3)c3n(c12)CCn1cccc1-3	cell growth or viability	MTT	48 h	–	62 µM
O=C(NO)c1ccc(Cn2cc(Cn3cnc4ccc(Br)cc4c3=O)nn2)cc1	cell growth or viability	MTT	48 h	–	15.8 µM
Cc1nnc2n1N=C(c1ccccc1OCC(=O)NCCNC(=O)COc1ccccc1C1=Nn3c(C)nnc3SC1)CS2	cell viability	MTT	–	–	0.41 µM
O=c1cc(-c2ccccc2)oc2cc(O)cc(O)c12	cell growth or viability	trypan blue	72 h	–	40 µM
O=C(COc1ccccc1C1=Nn2cnnc2SC1)NCCCCNC(=O)COc1ccccc1C1=Nn2cnnc2SC1	cell growth or viability	MTT	–	–	0.86 µM
CCn1[c](=[Au-2]([Cl])([Cl])[Cl])n(CC)c2ccccc21	cell growth or viability	crystal violet	96 h	–	6.7 µM
Cc1nnc2n1N=C(c1ccccc1OCC(=O)NCCCNC(=O)COc1ccccc1C1=Nn3c(C)nnc3SC1)CS2	cell growth or viability	MTT	–	–	0.12 µM
O=C(/C=C/c1ccc(Cn2cc(Cn3cnc4ccc(I)cc4c3=O)nn2)cc1)NO	cell growth or viability	MTT	48 h	–	17.4 µM
Cc1cc2ncc(-c3ccc(OCC(=O)NCCNC(=O)COc4ccc(-c5cnc6cc(C)c(C)cc6n5)cc4)cc3)nc2cc1C	cell growth or viability	MTT	–	–	22.4 µM

Structure (SMILES)	effect on	technique	time	notes	IC50
N#CC(C(=O)Nc1cccc(C(F)(F)F)c1)=C1Sc2nc3ccc(S(=O)(=O)N4CCCC4)cc3nc2S1	cell growth or viability	MTT	24 h	–	7.66 µM
COc1cc(/C=C/C(=O)N2CCC=CC2=O)cc(OC)c1OC	cell growth or viability	MTT	–	–	3.4 µM
COC(=O)c1c(-c2cccc(Br)c2)c2n(c1C(=O)OC)CCn1cccc1-2	cell growth or viability	MTT	48 h	–	71.7 µM
COc1ccc(N2CCN(CC(=O)Nc3ccc(C(=O)C=Cc4ccccc4)cc3)CC2)cc1	cell growth or viability	MTT	–	–	58.7 µM
CCn1[c](=[Au-2][Cl])n(CC)c2ccccc21	cell growth or viability	crystal violet	96 h	–	8.8 µM
COc1cccc(-c2c3n(c4c(=O)[nH]nc(O)c24)CCn2cccc2-3)c1	cell growth or viability	MTT	48 h	–	64.5 µM
COc1ccc(N2CCN(CC(=O)Nc3ccc(C(=O)C=Cc4ccc(Br)cc4)cc3)CC2)cc1	cell growth or viability	MTT	–	–	43.6 µM
COc1ccc(-c2cc(=O)n3c(ccn3Cc3cn([C@H]4O[C@@H](COC(C)=O)[C@H](OC(C)=O)[C@@H](OC(C)=O)[C@@H]4OC(C)=O)nn3)n2)cc1 (stereo in doubt)	cell growth or viability	MTT	72 h	–	27.7 µM
COc1ccc(N2CCN(CC(=O)Nc3ccc(C4=NN(C(C)=O)C(c5ccccc5)C4)cc3)CC2)cc1 (stereo not drawn)	cell growth or viability	MTT	–	–	25.7 µM
CC/C(=C(\c1ccccc1)c1ccc(OCCN(C)CCCCCC(=O)NCCCOc2ccc3[nH]cc(CCNC(C)=O)c3c2)cc1)c1ccccc1	cell survival	MTT	day 9	dosed days 2, 4, 7	31.2 µM
CC(=O)c1nn(-c2ccccc2Cl)/c(=N/N=C(\C)c2ccc(NC(=O)c3cccnc3)cc2)s1	cytotoxicity	MTT	24 h	–	4.64 ± 0.3 µM
O=C(NO)c1ccc(NC(=O)[C@@H](NC(=O)c2ccc(F)cc2)c2ccccc2)cc1	cell growth or viability	MTT	48 h	–	4.78 µM
C=C1[C@@H]2[C@H]3OC(=O)[C@@H](CN4CCC(O)CC4)[C@@H]3CCC(=C)[C@@H]2C[C@@H]1O	cell growth	MTT	48 h	–	< 50 µM
O=C(/C=C/c1ccc(Cn2cc(Cn3cnc4ccc(Br)cc4c3=O)nn2)cc1)NO	cytotoxicity	MTT	48 h	–	8.41 ± 1.29 µM
COC(=O)[C@@H]1Cc2c([nH]c3ccccc23)[C@H](c2ccc(Cl)c(Cl)c2)N1	cell growth or viability	ATP luminescence	–	–	< 10 µM
COc1ccc(N2CCN(CC(=O)Nc3ccc(C4=NN(C(C)=O)C(c5ccc(Br)cc5)C4)cc3)CC2)cc1 (stereo not drawn)	cell growth or viability	MTT	–	–	19.3 µM
Cc1ccc(-c2c3n(c4c(=O)[nH]nc(O)c24)CCn2cccc2-3)cc1	cell growth or viability	MTT	48 h	–	65.5 µM
Clc1nc(Cl)c2[nH]ccc2n1	cell growth or viability	WST-1	72 h	–	9.7 µM
COc1ccc(C2CC(c3ccc(NC(=O)CN4CCN(c5ccc(Cl)cc5)CC4)cc3)=NN2C(C)=O)cc1 (stereo not drawn)	cell growth or viability	MTT	–	–	89.4 µM
O=C(NO)c1ccc(Cn2cc(Cn3cnc4ccc(Cl)cc4c3=O)nn2)cc1	cell growth or viability	MTT	48 h	–	3.64 µM
COc1ccc(N2CCN(CC(=O)Nc3ccc(C4=NN(C(C)=O)C(c5ccc(C)cc5)C4)cc3)CC2)cc1 (stereo not drawn)	cell growth or viability	MTT	–	–	10.4 µM
O=C(NO)c1ccc(Cn2cc(Cn3cnc4cc(Br)ccc4c3=O)nn2)cc1	cell growth or viability	MTT	48 h	–	4.38 µM
O=C(COc1ccc(C2=Nn3c(nnc3-c3ccccc3)SC2)cc1)NCCCNC(=O)COc1ccc(C2=Nn3c(nnc3-c3ccccc3)SC2)cc1	cell growth or viability	MTT	–	–	10.9 µM
O=C(CN1CCN(c2ccc(Cl)cc2)CC1)Nc1ccc(C(=O)C=Cc2ccccc2)cc1	cell growth or viability	MTT	–	–	32.8 µM

Repeated from above:
Structure (SMILES)	effect on	technique	time	notes	IC50
O=C(COc1ccc(-c2cnc3ccccc3n2)cc1)NCCCNC(=O)COc1ccc(-c2cnc3ccccc3n2)cc1	cell viability	MTT	–	–	> 50 µM
O=c1[nH]nc(O)c2c(-c3cccc(Cl)c3)c3n(c12)CCn1cccc1-3	cell growth or viability	MTT	48 h	–	17.9 µM
COc1ccc(N2CCN(CC(=O)Nc3ccc(C4=NN(C(C)=O)C(c5cc(OC)c(OC)c(OC)c5)C4)cc3)CC2)cc1 (stereo not drawn)	cell growth or viability	MTT	–	–	2.89 µM
